Measured values of several laboratories.
± marks the error that the study gave.
NR1I2: Nuclear receptor subfamily 1 group I member 2 (NR1I2, Homo sapiens, UniProt O75469)
Sequence of UniProt O75469 (whole entry, looked up): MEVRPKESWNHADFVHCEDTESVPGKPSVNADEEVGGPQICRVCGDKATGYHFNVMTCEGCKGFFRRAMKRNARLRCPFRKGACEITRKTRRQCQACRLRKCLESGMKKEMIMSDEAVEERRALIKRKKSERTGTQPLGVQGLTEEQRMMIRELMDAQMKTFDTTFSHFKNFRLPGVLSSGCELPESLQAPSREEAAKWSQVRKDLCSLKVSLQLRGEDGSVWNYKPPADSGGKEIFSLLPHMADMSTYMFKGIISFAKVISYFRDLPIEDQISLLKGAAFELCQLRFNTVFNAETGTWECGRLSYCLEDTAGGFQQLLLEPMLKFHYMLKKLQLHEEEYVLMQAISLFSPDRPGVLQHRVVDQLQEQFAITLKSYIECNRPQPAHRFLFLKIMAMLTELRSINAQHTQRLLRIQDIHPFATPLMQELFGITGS
Sequence of UniProt P11712 (whole entry, looked up): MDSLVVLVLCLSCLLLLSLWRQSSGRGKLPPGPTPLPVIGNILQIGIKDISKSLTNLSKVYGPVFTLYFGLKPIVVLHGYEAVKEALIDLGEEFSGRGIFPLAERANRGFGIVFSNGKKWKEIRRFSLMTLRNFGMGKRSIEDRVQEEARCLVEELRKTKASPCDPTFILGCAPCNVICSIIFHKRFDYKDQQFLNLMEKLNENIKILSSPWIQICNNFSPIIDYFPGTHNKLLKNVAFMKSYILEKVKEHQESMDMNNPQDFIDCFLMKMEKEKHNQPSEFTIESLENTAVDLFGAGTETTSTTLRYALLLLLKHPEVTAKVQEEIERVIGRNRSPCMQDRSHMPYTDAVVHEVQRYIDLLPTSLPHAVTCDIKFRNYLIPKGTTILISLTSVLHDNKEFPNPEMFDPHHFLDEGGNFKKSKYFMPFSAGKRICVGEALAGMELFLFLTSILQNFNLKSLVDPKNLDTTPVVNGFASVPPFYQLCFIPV
Sequence of UniProt P08684 (whole entry, looked up): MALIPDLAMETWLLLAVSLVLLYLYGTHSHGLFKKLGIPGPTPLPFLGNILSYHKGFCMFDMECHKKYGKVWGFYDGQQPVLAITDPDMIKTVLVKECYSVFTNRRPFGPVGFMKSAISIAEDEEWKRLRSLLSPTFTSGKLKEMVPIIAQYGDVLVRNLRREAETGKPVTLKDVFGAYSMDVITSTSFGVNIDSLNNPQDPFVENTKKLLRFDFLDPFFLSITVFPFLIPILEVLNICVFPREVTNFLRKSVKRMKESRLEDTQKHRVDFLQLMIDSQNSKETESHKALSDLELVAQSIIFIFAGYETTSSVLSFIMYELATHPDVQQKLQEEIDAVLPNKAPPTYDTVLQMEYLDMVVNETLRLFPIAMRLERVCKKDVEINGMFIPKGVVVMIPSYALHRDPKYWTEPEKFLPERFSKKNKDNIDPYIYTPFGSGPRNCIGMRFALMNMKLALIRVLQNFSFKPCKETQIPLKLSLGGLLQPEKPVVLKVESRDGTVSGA
Sequence of UniProt P11509 (whole entry, looked up): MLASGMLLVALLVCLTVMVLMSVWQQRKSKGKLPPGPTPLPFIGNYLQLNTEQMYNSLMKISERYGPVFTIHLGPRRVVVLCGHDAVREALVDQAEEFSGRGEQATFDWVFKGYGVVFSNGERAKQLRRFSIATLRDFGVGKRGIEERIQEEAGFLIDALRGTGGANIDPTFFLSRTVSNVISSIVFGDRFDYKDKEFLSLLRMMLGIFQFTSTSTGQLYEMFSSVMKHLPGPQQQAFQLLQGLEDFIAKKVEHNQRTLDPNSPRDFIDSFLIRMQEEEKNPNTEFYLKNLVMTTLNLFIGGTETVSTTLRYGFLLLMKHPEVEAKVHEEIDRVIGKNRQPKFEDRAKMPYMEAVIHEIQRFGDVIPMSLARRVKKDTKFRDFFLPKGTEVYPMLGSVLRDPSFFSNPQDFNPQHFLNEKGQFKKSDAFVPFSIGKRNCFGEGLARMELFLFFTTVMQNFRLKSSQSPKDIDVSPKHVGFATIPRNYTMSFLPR

`O=[N+]([O-])NC1=NCCN1Cc1ccc(Cl)nc1` gave an EC10 of 0.1 mg/kg dry soil (Folsomia candida; reproduction, OECD 232; LUFA 2.2 soil; 28 days).
For `N[C@@]1(c2ccccc2Cl)C[C@@H](O)CCC1=O`, the dose-normalized Cmax was 640 ± 24.7 ng/mL per mg/kg (male CD-1 mice, plasma; intraperitoneal, 5 mg/kg).
With `CC[C@@]1(O)C(=O)OCc2c1cc1n(c2=O)Cc2cc3c(CN(C)C)c(O)ccc3nc2-1` the AUC(0-inf) was 48.7 ng·h/mL (human patients, plasma; oral, 2.5 mg daily for 5 days, day 5 cycle 1, geometric mean, alone).
For `Clc1ccc(Cl)c(-c2c(Cl)c(Cl)cc(Cl)c2Cl)c1`, the fold induction was 7.1 ± 1 fold (NR1I2; reporter gene, agonist, luciferase; COS-7; 24 h; relative to: DMSO).
With `CCCC(CCC)C(=O)Nc1ccccc1O` the mortality was 7.76 ± 4.67% (Artemia franciscana; larvae, artificial seawater; 0.10 mM, 48 h, 0.17% DMSO; relative to: DMSO control).
`COc1ccc2c(c1)[C@]13CCCC[C@@H]1[C@H](C2)N(C)CC3` gave a Cmax of 49.5 ± 14.6 ng/mL (Wistar rat, both sexes, plasma; oral, 5 mg/kg, 2 h after pretreatment, with: single quinidine 2.5 mg/kg).
The Papp of `CN1CC[C@]23c4c5ccc(O)c4O[C@H]2[C@@H](O[C@@H]2O[C@H](C(=O)O)[C@@H](O)[C@H](O)[C@H]2O)C=C[C@H]3[C@H]1C5` is reported as 2.35 ×10⁻⁶ cm/s (MDCK-MDR1; 100 µg/mL, 100 min).
`C=C1C[C@@H]2[C@H](CC[C@]3(C)C(=O)CC[C@@H]23)[C@@]2(C)C=CC(=O)C=C12`: “median plasma concentration” 8.6 ng/mL (LC-MS/MS; postmenopausal breast cancer women, plasma; oral, 25 mg/day, 2 h, CrCl 83.0 to 108.5 mL/min).
`Clc1ccc(-c2ccc(Cl)cc2Cl)cc1` has a fold induction of 1.9 ± 0.2 fold (NR1I2; reporter gene, agonist, luciferase; COS-7; 24 h; relative to: DMSO).
`CN/C(=N\[N+](=O)[O-])NCc1cnc(Cl)s1` has an EC10 of 0.03 mg/kg dry soil (Folsomia candida; reproduction, OECD 232; LUFA 2.2 soil; 28 days).
For `C=C(C)[C@@H]1CCC(C)=C[C@H]1c1c(O)cc(CCCCC)cc1O`, the inhibition was 25% (Cytochrome P450 2A6 (CYP2A6, Homo sapiens, UniProt P11509); cotinine to COX formation, inhibitor; microsomes of overexpressing HEK293 cells; 10 µM, 30 min, pH 7.4, with: cotinine 1 mM).
`CCCCCCCCCCc1cn(Cc2cn([C@H]3C[C@H](OC(=O)OC[C@H]4O[C@@H](n5cc(C)c(=O)[nH]c5=O)C[C@@H]4N=[N+]=[N-])[C@@H](CO)O3)c(=O)[nH]c2=O)nn1` has a CC50 of 113 µM (MT4; cell growth or viability).
`Brc1ccc(Oc2cc(Br)c(Br)cc2Br)c(Br)c1` has a fold induction of 5.1 ± 0.7 fold (NR1I2; reporter gene, agonist, luciferase; COS-7; 24 h; relative to: DMSO).
For `NC12CC3CC(CC(C3)C1)C2`, “minimum cytotoxic concentration” read over 500 µM (MDCK; microscopy, altered cell morphology).
`Clc1ccc(-c2ccc(Cl)c(Cl)c2Cl)cc1` gave a fold induction of 0.8 ± 0.1 fold (PXR (polar bear); reporter gene, agonist, luciferase; COS-7; 24 h; relative to: DMSO).
`N[C@]1(c2ccccc2Cl)CCC[C@@H](O)C1=O` has a dose-normalized Cmax of 142 ± 9.4 ng/mL per mg/kg (female CD-1 mice, plasma; intraperitoneal, 5 mg/kg).
`OCc1ncc2n1-c1ccc(Cl)cc1C(c1ccccc1F)=NC2` gave an AUC ratio of 0.31 (Cytochrome P450 3A4 (CYP3A4, Homo sapiens, UniProt P08684); human; 75 mg once daily, day 10, with: midazolam 7.5 mg; relative to: compound over midazolam).
For `N[C@]1(c2ccccc2Cl)CC[C@H](O)CC1=O`, the dose-normalized Cmax was 128 ± 9.1 ng/mL per mg/kg (female CD-1 mice, plasma; intraperitoneal, 5 mg/kg).
With `Clc1cc(Cl)c(-c2c(Cl)cc(Cl)c(Cl)c2Cl)c(Cl)c1` the fold induction was 3.2 ± 0.5 fold (NR1I2; reporter gene, agonist, luciferase; COS-7; 24 h; relative to: DMSO).
For `C[C@H]1CNCCc2ccc(Cl)cc21`, the plasma concentration was 12.3 ± 0.48 ng/mL (Sprague-Dawley rat, male, plasma; subcutaneous, 3 mg/kg, 240 min).
`Clc1ccc(C(c2ccc(Cl)cc2)C(Cl)(Cl)Cl)cc1` has a fold induction of 4.1 ± 0.6 fold (PXR (polar bear); reporter gene, agonist, luciferase; COS-7; 24 h; relative to: DMSO).
`Cc1ncc2n1-c1ccc(Cl)cc1C(c1ccccc1F)=NC2` gave a terminal half-life of 9.78 h (human CYP3A5*3/*7, serum; with: ketoconazole 200 mg).
`CN1CC[C@@]23CCCC[C@@H]2[C@@H]1Cc1ccc(O)cc13` has a half-life of 5.98 ± 1.97 h (Wistar rat, both sexes, plasma; oral, 5 mg/kg DEM, DEM 2 h after pretreatment, with: QN 2.5 mg/kg single pretreatment).
`Brc1c(Br)c(Br)c(Oc2c(Br)c(Br)c(Br)c(Br)c2Br)c(Br)c1Br` gave a fold induction of 1.9 ± 0.3 fold (PXR (polar bear); reporter gene, agonist, luciferase; COS-7; 24 h; relative to: DMSO).
The LC50 of `CN1COCN(Cc2cnc(Cl)s2)/C1=N\[N+](=O)[O-]` is reported as 0.32 mg/kg dry soil (Folsomia candida; survival, OECD 232; LUFA 2.2 soil; 28 days).
`CC[C@@H]1CN2CCc3c([nH]c4cccc(OC)c34)[C@H]2C[C@@H]1/C(=C\OC)C(=O)OC` has an IC50 of over 45 µM (Cytochrome P450 2C9 (CYP2C9, Homo sapiens, UniProt P11712); enzyme activity, inhibitor; human liver microsomes; with: diclofenac 4'-hydroxylation).
The fold induction of `Clc1ccc(-c2c(Cl)c(Cl)c(Cl)c(Cl)c2Cl)cc1Cl` is reported as 4.5 ± 0.5 fold (NR1I2; reporter gene, agonist, luciferase; COS-7; 24 h; relative to: DMSO).
With `CN[C@@](C)(C[18F])C(=O)O` the tracer uptake was 12 %ID/g (DU-145 tumour model; host not given, kidney; 30 min, tumour-bearing).

For quick reference, copied from above:
For `Clc1ccc(Cl)c(-c2c(Cl)c(Cl)cc(Cl)c2Cl)c1`, the fold induction was 7.1 ± 1 fold (NR1I2; reporter gene, agonist, luciferase; COS-7; 24 h; relative to: DMSO).
`CC[C@@H]1CN2CCc3c([nH]c4cccc(OC)c34)[C@H]2C[C@@H]1/C(=C\OC)C(=O)OC` has an IC50 of over 45 µM (Cytochrome P450 2C9 (CYP2C9, Homo sapiens, UniProt P11712); enzyme activity, inhibitor; human liver microsomes; with: diclofenac 4'-hydroxylation).
